Results collected from several papers.
Every numbered part comes from another study and shows a few of its results, in no order.

Set 1
Target: Fragile X messenger ribonucleoprotein 1, C-terminal low-complexity region (Fmr1, Mus musculus, UniProt P35922)
Method: RNA Bind-n-Seq
Form: RNA
Medium: in vitro
Tested at: 200 nM
Notes: whole 134-nt RNA, ends assumed
Together with: 150 mM LiCl
Reference: input library
Direction: higher = stronger binding
Quantity: log2 enrichment
All molecules: 7-deaza-guanosine replaces G
Shared flanks, not repeated: GGGAGUUCUACAGUCCGACGAUC … UGGAAUUCUCGGGUGUCAAGG
CAAGUCCUGUGCUACACAUCGUAUGUACCGAAUCGGAAAGGGAAAGGGGAAAGGGAAAGUAUUAUGUUACGCCGUUCGGAUCUGCACUUC: -0.213
CCUGUGCUACACAUCGUAUGUACCGAAUCGGGGUUUUUUGGGGUUUUUUGGGUUUUUUGGAAAGUAUUAUGUUACGCCGUUCGGAUCUGC: 0.783
GCAGGAAGUAAAAACAAAUGGAAAUAAAUCGGAUAGUGGCAGGGGUGGGGGUUGCUAAGGAAAGGGUGGGAUGGGAGUGGGUAAAGAGUU: 1.82
ACCAUGCAGGUGGGCAUCUUUGGGAAGUGGGGCAAGGGGGGGAUAGGGAGGGGGGUAACACUUUGGGAACAGGUGGUCCCAGGACGUUUC: 0.979
CACAGACAACACGCACCCACACAGACACAGAGGGAAGGGGUUGGGAUGGGGACAGGGUGCACAGCGGGGCGGGGUAGGACCCCAGCCCCU: -0.189
GUCCUGUGCUACACAUCGUAUGUACCGAAUCGGGUGGGAAAAAAAGGGAAAAAAAGGGAAAGUAUUAUGUUACGCCGUUCGGAUCUGCAC: 0.607
AGUCCUGUGCUACACAUCGUAUGUACCGAAUCGGGUUUGGGUUUUUGGGAAAAAGGGAAAGUAUUAUGUUACGCCGUUCGGAUCUGCACU: -1.37
GUCCUGUGCUACACAUCGUAUGUACCGAAUCAAACCCCCAAAUUUUUAAACCCCCAAAAAAGUAUUAUGUUACGCCGUUCGGAUCUGCAC: 1.43
GUCCUGUGCUACACAUCGUAUGUACCGAAUCGGAAAAAAGGAAAAAAGGAAAAAAGGGAAAGUAUUAUGUUACGCCGUUCGGAUCUGCAC: -0.526
AAGUCCUGUGCUACACAUCGUAUGUACCGAAUCGGUUUUUGGAAAAAAAGGUUUGGAAAGUAUUAUGUUACGCCGUUCGGAUCUGCACUU: -3.72
UGGCCCUGGUGGCAUGCGGGGAGGAAGAGGUGGCCUCAUGGAUCGUGGUGGUCCCGGUGGAAUGUUCAGAGGUGGCCCUGGUGGAGACAG: -0.132

Set 2
Target: Sal-like protein 4, full length isoform B (SALL4, Homo sapiens, UniProt Q9UJQ4-2, residues 1-616)
Method: universal PBM
Form: double-stranded DNA, one strand shown
Medium: in vitro
Tested at: not given
Notes: 8-mer, flanks averaged, mean of replicates
Direction: higher = stronger binding
Quantity: E-score
Residues (chain): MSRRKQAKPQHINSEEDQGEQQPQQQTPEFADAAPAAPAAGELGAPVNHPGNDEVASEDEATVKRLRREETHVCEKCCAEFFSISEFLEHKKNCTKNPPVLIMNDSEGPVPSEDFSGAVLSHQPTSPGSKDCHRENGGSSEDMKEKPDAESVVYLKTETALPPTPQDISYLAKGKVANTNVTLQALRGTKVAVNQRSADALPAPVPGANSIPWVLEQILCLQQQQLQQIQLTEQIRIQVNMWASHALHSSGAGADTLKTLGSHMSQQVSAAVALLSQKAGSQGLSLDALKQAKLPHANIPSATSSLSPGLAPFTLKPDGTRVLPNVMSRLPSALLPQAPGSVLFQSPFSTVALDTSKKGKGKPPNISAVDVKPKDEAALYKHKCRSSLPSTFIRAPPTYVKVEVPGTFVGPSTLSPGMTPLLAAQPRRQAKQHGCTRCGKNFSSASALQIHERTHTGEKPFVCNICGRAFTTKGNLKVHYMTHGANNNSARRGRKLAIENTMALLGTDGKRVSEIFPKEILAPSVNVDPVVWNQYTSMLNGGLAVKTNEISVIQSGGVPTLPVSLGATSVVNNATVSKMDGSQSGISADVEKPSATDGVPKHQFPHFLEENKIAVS
AGAATCCG: -0.179
CATCAGAG: -0.0762
CCGTCCAG: -0.258
TGAGGAAA: 0.15
ATGAGCTA: 0.121
AAATATCT: 0.308
CACGTGCC: -0.128
CATACTAG: 0.237
AAGCCTTA: 0.0182
AAATCCGA: 0.0232
GCGCCTAC: -0.133
AAGTTCGG: -0.115
CAGTCGGC: -0.312
CGGGTAGC: -0.229
CTGGTCGC: -0.198
CGGAGGAG: -0.196
CATGTAGC: 0.0114
GGCTCACC: -0.356
CCGGGTTC: -0.381
CTGAGTCC: -0.275
ACGCTGAC: -0.161
CAAACTAC: 0.0733
GTCTAGGA: 0.0551
CAATACAC: 0.239
ACTCGCCC: -0.253

Set 3
Target: Interferon regulatory factor 5, full length, phosphomimetic (IRF5, Homo sapiens, UniProt Q13568-2, residues 1-514, K96S/S451D/S453D/S456D/S462D)
Method: protein-binding microarray
Form: double-stranded DNA, one strand shown
Medium: in vitro
Tested at: 250 nM
Notes: 60-bp whole probe
Together with: salmon DNA 0.4 mg/ml
Reference: random background probes
Direction: higher = stronger binding
Quantity: log fluorescence
Shared flanks, not repeated: GCCTAGCAC … GTCTTGATTCGCTTGACGCTGCTG
TTAGATTCCATTTTCGATTAGTGCTAG: 7.61 z-score
TCACTCATGGCTTTGTAGATGTGCTAG: -0.324 z-score
TTAGCTTTCGGGACTGGGTTAGTGCTA: 7.42 z-score
GACTGTTCCGGTTTCGGGACGTGCTAG: 4.91 z-score
ATGCTTTACTCACTCGGAAAGTGCTAG: 0.0473 z-score
TTAGATCTCAGCCTCGATTAGTGCTAG: -0.0978 z-score
GACGATCTAAGTTTCGAGACGTGCTAG: 4 z-score
TCAAGAATCCCCTTCTAACTGTGCTAG: -0.101 z-score
GTTTTTTTTTAATTGAAATCGTGCTAG: 0.963 z-score
TTAGATATCGGGACTGGATTCGTGCTA: 0.975 z-score
TCATTTCAGTTTCTCTTACTGTGCTAG: 5.24 z-score
AGATGGTCCTCTCTCTATTCGTGCTAG: -0.301 z-score
GACGGTTTCGGACTGGGGAAGTGCTAG: 4.5 z-score
TAAGGTTTCGACACTGGGTTAGTGCTA: 3.95 z-score
TTAGGACTGCGTATCCTTTAGTGCTAG: -0.316 z-score
GACGGTCTCGGTCTCGGGAGGTGCTAG: 0.131 z-score
GAGGATTTCAGTTCCGAGACGTGCTAG: 0.666 z-score

Set 4
Target: Histone acetyltransferase KAT6A, winged helix 1, GST fusion (KAT6A, Homo sapiens, UniProt Q92794, residues 1-85)
Method: protein binding microarray
Form: double-stranded DNA, one strand shown
Medium: in vitro
Tested at: not given
Notes: 8-mer, flanks averaged, mean of 2 arrays, mostly near background
Reference: not given
Direction: higher = stronger binding
Quantity: E-score
Target sequence (chain): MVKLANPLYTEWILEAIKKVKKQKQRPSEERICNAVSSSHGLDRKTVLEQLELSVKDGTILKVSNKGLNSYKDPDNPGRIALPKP
CTGGACTA: -0.236
CATTAGCA: -0.239
AAAGCCCG: 0.257
AGCCGGCG: 0.45
TATCGGAA: -0.0817
ACTACGCG: 0.333
GGAGCAGA: -0.0402
ACGTTCCG: 0.205
AACGCATC: 0.107
GCAGTAAA: -0.188
AAGTGTAC: -0.0443
AAGTCGTA: -0.225
ACCCGACG: 0.408
CAGAGCCG: 0.235
ATAAGTCC: -0.149
CCCCTGTC: -0.141
CAGGATGA: -0.223
CGCGCACG: 0.425
GGACTGAA: -0.13
AAAATTGG: -0.232
ATTGACAA: -0.0433
ACTTGAAG: -0.214
CCGGCGAC: 0.367

Set 5
Target: PABPC1L2, full length, GST fusion (mouse, UniProt A0ABA7IW68)
Method: RNAcompete
Form: RNA
Medium: in vitro
Tested at: 20 nM
Notes: 7-mer, probes averaged, single round
Reference: mean of 7-mers
Direction: higher = stronger binding
Quantity: 7-mer Z-score
Residues (chain): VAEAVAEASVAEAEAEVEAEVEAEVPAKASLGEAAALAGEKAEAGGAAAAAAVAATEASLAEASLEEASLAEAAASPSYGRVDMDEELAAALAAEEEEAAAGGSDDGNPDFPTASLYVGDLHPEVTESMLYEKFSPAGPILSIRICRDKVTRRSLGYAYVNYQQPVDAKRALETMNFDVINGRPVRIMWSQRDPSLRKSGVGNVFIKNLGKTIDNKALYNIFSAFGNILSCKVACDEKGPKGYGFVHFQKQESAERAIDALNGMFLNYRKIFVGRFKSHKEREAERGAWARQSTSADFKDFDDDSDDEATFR
UAAGUGA: -0.11
AUACAGG: 0.222
GUCUUCC: -0.364
UCAUCCU: -0.432
AUAAGCU: 0.0551
CAUUAAG: -0.0536
GGGUUUG: -0.306
UGACGCG: -0.258
AGUACCU: 0.00254
UCGUAUC: -0.47
UGAUACC: -0.271
GAUCAUC: -0.19
GGACCAA: 0.119
UUCACAA: -0.0156
CCGCUUA: -0.257
AACAUAA: 1.74
AUAGGGC: 0.191
UGCAUCU: -0.222
AUAGUAA: 0.0768

A few entries again (set 5):
AUAAGCU: 0.0551
CAUUAAG: -0.0536
GGGUUUG: -0.306
UGACGCG: -0.258
AGUACCU: 0.00254
UCGUAUC: -0.47
UGAUACC: -0.271
GAUCAUC: -0.19
GGACCAA: 0.119
UUCACAA: -0.0156
CCGCUUA: -0.257
AACAUAA: 1.74
AUAGGGC: 0.191
UGCAUCU: -0.222
